Assay results from different studies.
Compare with care: the assays were run in different laboratories. ± gives the spread as reported.

CCN(CC)CCCC(C)Nc1cnc(C(=O)Nc2ccc(Cl)c3cccnc23)cn1 (stereo not drawn)
half-life (metabolic stability; liver microsomes; 1 µM): > 0.5 h

O=C1CC[C@H](N2Cc3cc(N4CCN(CC5CCN(c6ccc([C@@H]7c8ccc(O)cc8CC[C@@H]7c7ccccc7)cc6)CC5)CC4)ccc3C2=O)C(=O)N1
half-life (SD rat liver microsomes; 1 µM, pH 7.4): 0.796 h

C=CC[C@@H]1/C=C(\C)C[C@H](C)C[C@H](OC)[C@H]2O[C@@](O)(C(=O)C(=O)N3CCCC[C@H]3C(=O)O[C@H](/C(C)=C/[C@@H]3CC[C@@H](O)[C@H](OC)C3)[C@H](C)[C@@H](O)CC1=O)[C@H](C)C[C@@H]2OC
half-life (pooled human liver microsomes; pH 7.4): 0.0423 h

COCCOc1cnc2ccn([C@H](C)c3nnc4c(F)cc(-c5cnn(C)c5)cn34)c(=O)c2c1
half-life (patients, plasma; oral, 400 mg once daily, day 1): 5.9 h

NC(CCC(c1ccccc1)(c1ccccc1)c1ccccc1)C(=O)O (racemic)
half-life (pH 1): stable

CCCCCCCCCCCCCCCC(=O)N[C@@H](CCC(=O)NCCCC[C@@H]1NC(=O)[C@H]([C@@H](C)CC)NC(=O)[C@@H](NC(=O)[C@@H]2CCCN2C(=O)[C@H](Cc2ccccc2)NC(=O)[C@H](Cc2c[nH]cn2)NC(=O)[C@@H](NC(=O)[C@H](CC(=O)O)NC(=O)CC(C)C)[C@@H](C)O)CSSC[C@@H](C(=O)N[C@@H](CCCCN)C(N)=O)NC(=O)CNC(=O)[C@H](CCCCN)NC(=O)[C@H](CO)NC(=O)[C@H](CCCNC(=N)N)NC(=O)[C@@H]2CCCN2C(=O)[C@H](CCC(=O)O)NC(=O)[C@H](Cc2ccccc2)NC1=O)C(=O)O
half-life (healthy volunteers, plasma; subcutaneous, 10 mg single, lyophilised formulation): 19.6 ± 5.22 h

CC(C)[N+](C)(CCOC(=O)C1c2ccccc2Oc2ccccc21)C(C)C
half-life (human whole blood; 5 µM): 0.534 h

COc1cccc2c1OCC(C(=O)Nc1ccc3c(c1)CN(C1CCC(=O)NC1=O)C3=O)=C2 (stereo not drawn)
half-life (metabolic stability; liver microsomes; 2 µM): > 6 h

C[C@H]1[C@H]2N(C(=O)CN(C)N2C(=O)NCc2ccccc2)[C@@H](Cc2ccc(OP(=O)(O)O)cc2)C(=O)N1Cc1cccc2cccnc12
half-life (patients, plasma; intravenous infusion, 140 mg/m2 over 4 h, mean): 0.5 h

Nc1nnc(-c2ccccc2O)cc1N1CCN(Cc2ccc(OCCOCCNc3cccc4c3C(=O)N(C3CCC(=O)NC3=O)C4=O)c(F)c2)CC1 (stereo not drawn)
half-life (mouse liver microsomes; with: ritonavir 10 µM; reference: compound alone): increased

Cc1ccc2c(c1)C(=O)[C@]1(O)CCN(c3ccc4nc(C)ccc4c3)C1=N2.Cl
half-life (plasma; oral, 10 mg/kg): 10.3 h

Cc1cc(=O)n(-c2ccccc2)n1C
half-life (induced rat liver microsomes; 1 µM, pH 7.4): > 2 h

CC(C)(C)c1nc(-c2cccc(N(Cc3cc(C(=O)[O-])ccc3OP(=O)([O-])[O-])S(=O)(=O)c3c(F)cccc3F)c2F)c(-c2ccnc(N)n2)s1.[Na+].[Na+].[Na+]
half-life (simulated gastric fluid; 10 µM, 2 h incubation, pH 1.2): > 2 h

O=C(ON1C(=O)CCC1=O)c1cc(C(F)(F)F)cc(C(F)(F)F)c1
half-life (HPLC-MS; BBS buffer; pH 10.2): < 0.0167 h

C[C@H]1CN(C(=O)CC#N)[C@]12CCN(c1ncnc3[nH]ccc13)C2
half-life (healthy Japanese males, plasma; oral, 5 mg single dose): 2.7 h

C=CC(=O)NC1CCN(c2ncc3ncnc(Nc4ccc(Oc5ccc6c(c5)ncn6C)c(C)c4)c3n2)CC1
half-life (healthy men; oral, 60 mg single dose): 38.7 h

Cc1c(C)n(Cc2cccc(OC(C)(C)C(=O)O)c2)c2ccc(C(=O)N[C@@H](C)c3ccc(C(C)(C)C)cc3)cc12
half-life (mouse liver microsomes; 1 µM, with: microsomes 1 mg/mL): > 1 h

N[C@@H](CC(=O)N1CCc2c(nc(C(F)(F)F)nc2C(F)(F)F)C1)CN1CC(F)(F)CCC1=O
half-life (healthy Korean adults, fasted, plasma; oral, 50 mg single dose, fixed-dose combination tablet, with: enavogliflozin 0.3 mg): 18.7 ± 2.54 h

CC1=NN(/C(=N\c2ccccc2)Nc2nnc(C)s2)C(c2ccc(C)cc2)S1 (stereo not drawn)
half-life (plasma stability; rat plasma): 0.0983 h

CC[C@H](C)[C@H](NC(=O)[C@@H](NC(=O)[C@@H](NC(=O)[C@@H](NC(=O)[C@@H]1CCCN1C(=O)[C@H](Cc1c[nH]cn1)NC(=O)[C@@H]1CCCN1C(=O)CN)C(C)(C)C)[C@@H](C)CC)C(C)(C)C)C(=O)N[C@H](C(=O)NCC(=O)N1[C@H](C(=O)N[C@@H](Cc2c[nH]cn2)C(=O)N[C@@H](CCC(=O)O)C(=O)N[C@@H](CCC(=O)O)C(N)=O)CSC1(C)C)[C@@H](C)O
half-life (human serum 25%; 5 µM, 37 °C): ~6 h

O=c1c(-c2ccc(O)cc2)coc2cc(O)cc(O)c12
half-life (substrate depletion; phenobarbital/β-naphthoflavone-induced rat liver microsomes; 1 µM, pH 7.4, 37 °C, with: NADPH): 0.0775 h

N#CCNC(=O)c1ccc(-c2ccnc(Nc3ccc(N4CCOCC4)cc3)n2)cc1
half-life (healthy volunteers, plasma; oral, 200 mg single dose, day 1, given alone, fasted): 6.41 h

Cc1noc(C)c1-c1ccc2nc(-c3cnn(CC(C)(C)O)c3)nc(N3CCOC[C@@H]3c3ccccc3)c2c1
half-life (human liver microsomes): 0.55 h

Cc1cccc(CNC(=O)c2cn(CCNC(=O)c3ccccc3Sc3c([N+](=O)[O-])ncn3C)c3cc4c(cc3c2=O)OCO4)n1
half-life (blood stability, LC-MS/MS; CD-1 mouse whole blood; 1 µM, 37 °C): 4.65 h

O=C1CC2(CCCC2)CC(=O)N1CCCCN1CCN(c2ncccn2)CC1
half-life (induced rat liver microsomes; 1 µM, pH 7.4): 0.12 ± 0.0383 h

Brc1cncs1
half-life (PBS with 5% acetonitrile; 250 µM, pH 7.4, no glutathione): 32.8 h

OCc1ccc(-c2nn(Cc3ccccc3)c3ccccc23)o1
half-life (mouse liver microsomes; with: NADPH and UDPGA): < 0.0833 h

COc1ccc([C@@H](O)c2cc(-c3ncnc4cc(N5CCOCC5)ccc34)c(F)cc2Cl)nn1
half-life (geometric mean; healthy volunteers, plasma; oral, 100 mg, fasted oral suspension): 3.79 h

CN[C@H](CC(C)C)C(=O)N[C@H]1C(=O)N[C@@H](CC(N)=O)C(=O)N[C@H]2C(=O)N[C@H]3C(=O)N[C@H](C(=O)N[C@H](C(=O)O)c4cc(O)cc(O)c4-c4cc3ccc4O)[C@H](O)c3ccc(c(Cl)c3)Oc3cc2cc(c3O[C@@H]2O[C@H](CO)[C@@H](O)[C@H](O)[C@H]2O[C@H]2C[C@](C)(N)[C@H](O)[C@H](C)O2)Oc2ccc(cc2Cl)[C@H]1O
half-life (guinea pig, serum; intraperitoneal, 15 mg/kg, single dose): 2.82 h

COC(=O)[C@H](N)CSN=O
half-life (PBS; 10 µM, pH 6.99, room temperature, dark): 0.757 ± 0.085 h

O=c1c2ccccc2sn1-c1ccc(F)cc1
half-life (mouse liver microsomes; with: NADPH): < 1 h

Cc1ccc2[nH]c(=S)n(Cc3cccnc3)c(=O)c2c1
half-life (plasma stability; mouse plasma): > 6.22 h

O=C(O)c1cc(O)c(O)c(O)c1
half-life (LC-MS/MS; male Ross broilers, serum; oral, 0.49 mg/kg BW): 2.76 ± 1.75 h

CCC1=C(CC)/C(=C/N[C@H]2CC[C@H](C)CC2)N=C1c1ccc[nH]1
half-life (mouse liver microsomes; 1 µM, pH 7.4): 0.625 h

Clc1ccc(C(c2ccccc2Cl)C(Cl)Cl)cc1 (stereo not drawn)
half-life (human, plasma): ~936 h

NC(=O)CC[C@@H]1NC(=O)[C@H](Cc2ccccc2)NC(=O)[C@H](Cc2ccc(O)cc2)NC(=O)CCSSC[C@@H](C(=O)N2CCC[C@H]2C(=O)N[C@H](CCCN=C(N)N)C(=O)NCC(N)=O)NC(=O)[C@H](CC(N)=O)NC1=O
half-life (mild haemophilia A patients and carriers, plasma; intravenous infusion over 30 min, 0.3 µg/kg, mean, noncompartmental): 1.8 h

CC(=O)O[C@H]1C(=O)[C@@]2(C)[C@H]([C@H](OC(=O)c3ccccc3)[C@]3(O)C[C@H](OC(=O)[C@H](OC(=O)OCc4cc(P(=O)(O)O)ccc4OP(=O)(O)O)[C@@H](NC(=O)c4ccccc4)c4ccccc4)C(C)=C1C3(C)C)[C@]1(OC(C)=O)CO[C@@H]1C[C@@H]2O
half-life (HBSS; 10 µM, 2 h incubation, pH 6.5): > 2 h

C[C@@H](N)C1CCN(S(=O)(=O)c2cccc3cnccc23)CC1
half-life (healthy volunteers, plasma; oral, 150 mg, fed, single dose): 2.05 h

C[C@H](NC(=O)/C(C#N)=C/c1cccc(Br)n1)c1ccccc1
half-life (LC-MS/MS; patients, plasma; oral, 4 mg/kg, cycle 1 day 8): 5 h

CCCCCN(C)CCC(O)(P(=O)(O)O)P(=O)(O)OP(=O)(O)OC[C@H]1O[C@@H](n2ccc(N)nc2=O)C(F)(F)[C@@H]1O (stereo partly drawn)
half-life (hydrolysis; HEPES buffer; pH 6.2, 37 °C): 6.4 h

N[C@@H](CC(=O)O)C(=O)OC(C(=O)O)c1ccccc1[N+](=O)[O-].O=C(O)C(F)(F)F (mixture of isomers)
half-life (hydrolysis, 1H NMR; aqueous citrate-ammonium sulfate, 12.5% DMSO-d6; pH 4.2, room temperature, dark, isomer A): 16.9 ± 0.4 h

CCCCC[C@H](O)CC[C@@H]1[C@H]2Cc3cccc(OCC(=O)O)c3C[C@H]2C[C@H]1O
half-life (LC-MS/MS; Japanese PAH patients, no background therapy, plasma; inhaled, 54 µg, geometric mean): 0.94 h
